Measurements of several laboratories.
Numbered parts are unrelated; each lists some results of a single study. Substitutions count along the parent as printed.

Sample 1
Target: ABI1, truncated, D143A, DHFR fusion (Arabidopsis thaliana, UniProt P49597)
Technique: DHFR PCA, dose-response
Matrix: yeast
Notes: Hill fit, mean, not affinity
Added: (+)-ABA, dose series
Direction: lower = more sensitive
Starting sequence: PYL1, truncated, DHFR fusion (Arabidopsis thaliana, UniProt Q8VZS8); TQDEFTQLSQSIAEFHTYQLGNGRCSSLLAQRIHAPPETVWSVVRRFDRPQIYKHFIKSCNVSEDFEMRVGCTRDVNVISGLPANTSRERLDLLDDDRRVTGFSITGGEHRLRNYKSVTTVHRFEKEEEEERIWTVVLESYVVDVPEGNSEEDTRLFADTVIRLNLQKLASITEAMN
`D75V` gave an ABA EC50 of 0.39 µM.
With `E4H` the ABA EC50 was 3.02 µM.
For `Y18L`, the ABA EC50 was 20.5 µM.
The ABA EC50 of `N114Y` is reported as 237 µM.
`T101K` has an ABA EC50 of 544 µM.
`E4P` has an ABA EC50 of 3.52 µM.
With `Y18R` the ABA EC50 was 10.6 µM.
The ABA EC50 of `R155Y` is reported as 134 µM.
`Y18S` has an ABA EC50 of 14.7 µM.
The ABA EC50 of `E152H` is reported as 3.64 µM.
With `W134L` the ABA EC50 was 1.64 µM.
The ABA EC50 of `L164V` is reported as 0.961 µM.
The ABA EC50 of `F56Q` is reported as 453 µM.
For `R98S`, the ABA EC50 was 20.6 µM.
`Q31K` gave an ABA EC50 of 3.65 µM.
`E38D` has an ABA EC50 of 2.37 µM.
The ABA EC50 of `R88V` is reported as 1.74 µM.
`E139Y` has an ABA EC50 of 1.92 µM.
With `N61P` the ABA EC50 was 97.9 µM.
The ABA EC50 of `P146T` is reported as 118 µM.
`R132A` gave an ABA EC50 of 1.07 µM.
With `R111E` the ABA EC50 was 196 µM.
For `T160N`, the ABA EC50 was 10.8 µM.
The ABA EC50 of `T39E` is reported as 3.74 µM.

Sample 2
Target: CCNE2, cyclin fold, Cln2 fusion (human)
Technique: yeast growth competition, sequencing
Matrix: yeast
Notes: strong parent motif
Baseline: not given
Direction: higher = stronger binding
Starting sequence: PKN2 docking peptide (human); VSAVRKLDFSDTM; partner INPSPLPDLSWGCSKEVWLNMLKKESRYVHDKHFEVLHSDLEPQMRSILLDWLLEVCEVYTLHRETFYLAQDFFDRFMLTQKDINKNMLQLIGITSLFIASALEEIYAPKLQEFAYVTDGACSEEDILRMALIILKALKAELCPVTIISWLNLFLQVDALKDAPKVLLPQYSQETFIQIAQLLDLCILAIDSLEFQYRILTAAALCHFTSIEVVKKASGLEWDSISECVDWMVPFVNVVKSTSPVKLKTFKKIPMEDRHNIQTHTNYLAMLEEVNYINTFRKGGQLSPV
Under “normalised enrichment score”, `VSAVRKLDFSNTM [D11N]` is recorded as 5.24.
`VSAVRKLDFSKTM [D11K]`: “normalised enrichment score” 5.19.
`VSAVTKLDFSDTM [R5T]` — result for “normalised enrichment score”: 0.0743.
`VSAVRKLDESDTM [F9E]` — result for “normalised enrichment score”: 0.235.
Under “normalised enrichment score”, `VSAVRKNDFSDTM [L7N]` is recorded as 0.159.
For `VSATRKLDFSDTM [V4T]`, “normalised enrichment score” read 1.41.
Under “normalised enrichment score”, `VCAVRKLDFSDTM [S2C]` is recorded as 3.79.
`VSAVRKYDFSDTM [L7Y]`: “normalised enrichment score” 0.326.
`VSAVRKLDFSDNM [T12N]` — result for “normalised enrichment score”: 4.76.
`VQAVRKLDFSDTM [S2Q]`: “normalised enrichment score” 3.92.
`VSDVRKLDFSDTM [A3D]` — result for “normalised enrichment score”: -0.0444.
Under “normalised enrichment score”, `VSAVRKVDFSDTM [L7V]` is recorded as 0.364.
For `VSALRKLDFSDTM [V4L]`, “normalised enrichment score” read 0.988.
`VSAVRKLDFSDFM [T12F]`: “normalised enrichment score” 5.08.
For `VSHVRKLDFSDTM [A3H]`, “normalised enrichment score” read 6.03.
`VSAVRKLDFSLTM [D11L]`: “normalised enrichment score” 4.89.
`VSAVRKLEFSDTM [D8E]`: “normalised enrichment score” 3.84.
`VSAVRKLHFSDTM [D8H]` — result for “normalised enrichment score”: 3.78.
For `VSYVRKLDFSDTM [A3Y]`, “normalised enrichment score” read 4.6.
For `VSAVRKWDFSDTM [L7W]`, “normalised enrichment score” read 0.0707.
For `VIAVRKLDFSDTM [S2I]`, “normalised enrichment score” read 2.61.
For `VSAVRKLDFSDPM [T12P]`, “normalised enrichment score” read 4.83.
`VSAMRKLDFSDTM [V4M]` — result for “normalised enrichment score”: 2.3.
`VSAVRKLDFSHTM [D11H]` — result for “normalised enrichment score”: 4.46.
`VSAVRKDDFSDTM [L7D]` — result for “normalised enrichment score”: -0.0669.

Sample 3
Target: Centromere-binding protein 1, full length, His-tagged (CBF1, Saccharomyces cerevisiae, UniProt P17106, residues 1-351)
UniProt P17106, sequence (whole entry, looked up): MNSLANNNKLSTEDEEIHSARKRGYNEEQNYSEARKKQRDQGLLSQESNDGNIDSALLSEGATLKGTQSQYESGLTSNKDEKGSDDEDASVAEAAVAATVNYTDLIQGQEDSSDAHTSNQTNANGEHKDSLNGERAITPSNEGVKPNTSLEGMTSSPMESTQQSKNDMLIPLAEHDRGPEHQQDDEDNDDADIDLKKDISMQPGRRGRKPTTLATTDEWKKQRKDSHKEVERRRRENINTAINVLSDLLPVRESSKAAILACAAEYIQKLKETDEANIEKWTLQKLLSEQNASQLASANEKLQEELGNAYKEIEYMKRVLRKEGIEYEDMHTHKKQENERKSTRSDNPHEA
Technique: competition protein-binding microarray
Form: double-stranded DNA, one strand shown
Matrix: in vitro
Tested at: 2 µM
Notes: whole 60-bp probe, lowest competitor level
Added: Pho4 competitor, 0.05 µM
Direction: higher = stronger binding
For `CAATTTGTGGTCTTCGTCGTGCTTTGTGGGTTTAGCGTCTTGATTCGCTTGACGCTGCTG`, the fluorescence intensity was 75 a.u.
With `TGCGCAACAACTTGGAAAGTGGGTGTATGTCTAGAAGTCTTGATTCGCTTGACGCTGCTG` the fluorescence intensity was 67.4 a.u.
`TTGATTCAAGCTCCACACGTGAGTCGAATGAACCTGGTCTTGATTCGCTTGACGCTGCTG` gave a fluorescence intensity of 1020 a.u.
`AAAATCCATTTTTAAAACGTGTGAATGTTTTCCCTGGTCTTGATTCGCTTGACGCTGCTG` has a fluorescence intensity of 139 a.u.
For `AGCGCCCATAAAAAGCACGATATTCTTGTACACTAGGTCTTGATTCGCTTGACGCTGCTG`, the fluorescence intensity was 75.5 a.u.
`ATCTATATACATATTTATATATATTATTAGAACTTTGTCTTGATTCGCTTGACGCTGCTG` has a fluorescence intensity of 95.1 a.u.
For `GAAACAGCTGCTACCCACGATGTAGTGTTTGAAACAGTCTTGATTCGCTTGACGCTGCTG`, the fluorescence intensity was 70 a.u.
For `CCTCCTATGCTGCGTCTCGTGGGTACTATGGCGTCGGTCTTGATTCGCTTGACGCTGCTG`, the fluorescence intensity was 94.5 a.u.
For `TGCGCAACAACTTGATTCGTGGGTGTATGTCTAGAAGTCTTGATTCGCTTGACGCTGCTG`, the fluorescence intensity was 73.1 a.u.
With `ATACATTTCTCAGGACACGTACTGAGAATATTGTTGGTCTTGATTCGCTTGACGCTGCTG` the fluorescence intensity was 111 a.u.
With `AAAGCGGTAATTTGTAACGTGGGTGCAGATATCTATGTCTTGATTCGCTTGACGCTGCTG` the fluorescence intensity was 99.7 a.u.
With `AGATACATTACCACCTTCGTGATTGGAATGAATGGTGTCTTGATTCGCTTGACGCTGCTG` the fluorescence intensity was 94.2 a.u.
For `ATTTACGGTTAGTCCCACGCTATAACCCGCCGTTGTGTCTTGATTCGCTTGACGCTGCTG`, the fluorescence intensity was 57.4 a.u.
With `AACCGCATCCCGTCCCACGTGACGGACGGCACCCAAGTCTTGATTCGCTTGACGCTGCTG` the fluorescence intensity was 3150 a.u.
With `GTCTTGTCTCATTGAGCAGTGGGTGTCCCCACTTCAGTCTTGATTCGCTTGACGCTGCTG` the fluorescence intensity was 77.3 a.u.
The fluorescence intensity of `AATGAAGACCGGGAATTCGTGCCGAGTTCGAGTTTGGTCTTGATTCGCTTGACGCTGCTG` is reported as 70.4 a.u.
For `AAATTACTAAGTTTTCACGTGAGTTACCCCGTATGAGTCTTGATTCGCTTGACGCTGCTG`, the fluorescence intensity was 923 a.u.
The fluorescence intensity of `AAATTACTAAGTTGCAATGTGGGTGACGCCGTATGAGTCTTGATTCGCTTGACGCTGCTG` is reported as 73.9 a.u.
`TGCGCAACAACTTTTCACGTGGTTTTATGTCTAGAAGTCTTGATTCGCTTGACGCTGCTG` gave a fluorescence intensity of 1170 a.u.
`CGTCCTAGTGATTGTCACCTGACTTCCATGAGGAAGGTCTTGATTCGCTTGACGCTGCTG` gave a fluorescence intensity of 1680 a.u.
`CGGGGTTAAGTTTGTACCGTGGGTGGCTTGCAGCAGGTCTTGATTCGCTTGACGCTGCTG` gave a fluorescence intensity of 66.2 a.u.
`CAAGGATTCCTAATTCACGTGCAAAAGCAACCGGATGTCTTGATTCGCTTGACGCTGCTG` has a fluorescence intensity of 1250 a.u.
The fluorescence intensity of `AAAAGAGGTTCGAGTCACGTGATGGAGATTACCCGCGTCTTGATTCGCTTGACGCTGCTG` is reported as 21900 a.u.

Sample 4
Target: Histone acetyltransferase KAT6A, winged helix 1, GST fusion (KAT6A, Homo sapiens, UniProt Q92794, residues 1-85)
Technique: protein binding microarray
Form: double-stranded DNA, one strand shown
Matrix: in vitro
Tested at: not given
Notes: 8-mer, flanks averaged, mean of 2 arrays, mostly near background
Baseline: not given
Direction: higher = stronger binding
Construct (chain): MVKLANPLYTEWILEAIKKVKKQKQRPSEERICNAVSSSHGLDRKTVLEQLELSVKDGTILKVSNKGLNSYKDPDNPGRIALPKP
For `AAGATCTT`, the E-score was -0.119.
For `AAACCGTA`, the E-score was 0.119.
The E-score of `ATAGTATC` is reported as 0.0481.
`ATACAGGA` gave an E-score of 0.11.
The E-score of `ACCTAGAA` is reported as -0.191.
`AACAAAGA` gave an E-score of -0.247.
The E-score of `CAGACGTA` is reported as -0.11.
For `AGGTCCTG`, the E-score was -0.179.
For `ATGCTACC`, the E-score was 0.0187.
For `CGATCTAC`, the E-score was -0.0733.
The E-score of `AGAACCGA` is reported as -0.0529.
For `CAGCGTGC`, the E-score was 0.263.
For `ACACTCGG`, the E-score was 0.152.
`GCTTCATA` gave an E-score of -0.0185.
With `ATCGCCGC` the E-score was 0.407.
For `CTTCTAGC`, the E-score was -0.0674.
For `AGAGGACG`, the E-score was -0.00933.
For `GCTGATGA`, the E-score was 0.0185.

Excerpt of the above (sample 2):
Under “normalised enrichment score”, `VCAVRKLDFSDTM [S2C]` is recorded as 3.79.
`VSAVRKYDFSDTM [L7Y]`: “normalised enrichment score” 0.326.
`VSAVRKLDFSDNM [T12N]` — result for “normalised enrichment score”: 4.76.
`VQAVRKLDFSDTM [S2Q]`: “normalised enrichment score” 3.92.
`VSDVRKLDFSDTM [A3D]` — result for “normalised enrichment score”: -0.0444.
Under “normalised enrichment score”, `VSAVRKVDFSDTM [L7V]` is recorded as 0.364.
For `VSALRKLDFSDTM [V4L]`, “normalised enrichment score” read 0.988.
`VSAVRKLDFSDFM [T12F]`: “normalised enrichment score” 5.08.
For `VSHVRKLDFSDTM [A3H]`, “normalised enrichment score” read 6.03.
`VSAVRKLDFSLTM [D11L]`: “normalised enrichment score” 4.89.
`VSAVRKLEFSDTM [D8E]`: “normalised enrichment score” 3.84.
`VSAVRKLHFSDTM [D8H]` — result for “normalised enrichment score”: 3.78.
For `VSYVRKLDFSDTM [A3Y]`, “normalised enrichment score” read 4.6.
